Measurements of several laboratories.
Numbers after ± are the reported error.
Organism: Plasmodium falciparum

For `CCC1=C(C)C(=CNC2CCCCCCC2)N=C1c1ccc[nH]1`, the IC50 was 75 nM (parasite growth; 7G8, chloroquine-resistant).
For `Oc1c(CN(Cc2ccccn2)Cc2ccccn2)cc(CCn2cc(COCCOCCOCCOCc3cn(CCc4cc(CN(Cc5ccccn5)Cc5ccccn5)c(O)c(CN(Cc5ccccn5)Cc5ccccn5)c4)nn3)nn2)cc1CN(Cc1ccccn1)Cc1ccccn1`, the IC50 was 142 ± 34 nM (parasite growth, SYBR Green I; 3D7; 72 h).
`OCCCCCCCCOCCCc1cccnc1` has an IC50 of over 188000 nM (anti-HRPII ELISA; W2 chloroquine-resistant; 72 h).
The IC50 of `CC[C@H](C)[C@@H]1NC(=O)[C@H](CCCCN)NC(=O)[C@H](CCCCN)NC(=O)[C@H](Cc2ccc(O)cc2)NC(=O)[C@H](CC(C)C)NC(=O)[C@@H]2CCCN2C(=O)[C@H](C)NC(=O)CNC(=O)CNC(=O)[C@H](CO)NC(=O)CNC(=O)CNC(=O)[C@H](CO)NC(=O)[C@H](CCC(=O)O)NC(=O)[C@H](CC(C)C)NC(=O)[C@H](CC(C)C)NC(=O)[C@H](CCCCN)NC(=O)[C@H](CCCCN)NC(=O)[C@H]([C@@H](C)CC)NC(=O)[C@H]([C@@H](C)CC)NC(=O)[C@H](CCCCN)NC(=O)[C@H](CCCCN)NC(=O)[C@H](Cc2ccc(O)cc2)NC(=O)[C@H](CC(C)C)NC(=O)[C@@H]2CCCN2C(=O)CNC(=O)CNC(=O)[C@@H](NC(=O)CN)CSSC[C@@H](C(=O)O)NC(=O)[C@H](CC(C)C)NC(=O)[C@H](CCCCN)NC(=O)[C@H](CCCCN)NC(=O)[C@H]([C@@H](C)CC)NC1=O` is reported as 19300 ± 1100 nM (parasite growth; 3D7; 72 h, Albumax II medium, no serum).
`Cc1ccc(C(C)C)cc1.Clc1ccc2c(NCCNCc3ccccn3)ccnc2c1.[Cl-].[Cl][Ru+]` has an IC50 of 7690 ± 70 nM (parasite growth, parasite lactate dehydrogenase; D10 chloroquine-sensitive).
The IC50 of `COc1ccc2cc1Oc1cc3c(cc1OC)CCN(C)C3Cc1ccc(cc1)Oc1c(O)c(OC)cc3c1C(C2)N(C)CC3` (stereo not shown) is reported as under 1000 nM (parasite growth, SYBR green I; INDO or Cam3.1 R539T, human red blood cells; 72 h).
The IC50 of `C(=NC12CC3CC(CC(C3)C1)C2)c1cc(-c2ccc[nH]2)c[nH]1` is reported as over 2500 nM (parasite growth; Dd2, chloroquine-resistant).
`COc1cc(O)c(-c2ccc(OC)c3c(OC)cc(C)cc23)c2c1[C@H](C)N(C)[C@H](C)C2` gave an IC50 of 1410 nM (parasite growth; K1; drug-resistant strain, blood stage).
The IC50 of `CC1(C2CC2)OOC2(CCN(C(=O)c3ccccc3)CC2)OO1` is reported as 44.6 nM (parasite growth, imaging; 3D7; 48 h, blood stage).
`CC[C@H](C)[C@@H]1NC(=O)[C@H](CCCCN)NC(=O)[C@H](CCCCN)NC(=O)[C@H](Cc2c[nH]c3ccccc23)NC(=O)[C@H](CC(C)C)NC(=O)[C@@H]2CCCN2C(=O)[C@H](C)NC(=O)CNC(=O)CNC(=O)[C@H](CO)NC(=O)CNC(=O)CNC(=O)[C@H](CO)NC(=O)[C@H](CCC(=O)O)NC(=O)[C@H](CC(C)C)NC(=O)[C@H](CC(C)C)NC(=O)[C@H](CCCCN)NC(=O)[C@H](CCCCN)NC(=O)[C@H]([C@@H](C)CC)NC(=O)[C@H]([C@@H](C)CC)NC(=O)[C@H](CCCCN)NC(=O)[C@H](CCCCN)NC(=O)[C@H](Cc2c[nH]c3ccccc23)NC(=O)[C@H](CC(C)C)NC(=O)[C@@H]2CCCN2C(=O)CNC(=O)CNC(=O)[C@@H](NC(=O)CN)CSSC[C@@H](C(N)=O)NC(=O)[C@H](CC(C)C)NC(=O)[C@H](CCCCN)NC(=O)[C@H](CCCCN)NC(=O)[C@H]([C@@H](C)CC)NC1=O` gave an IC50 of 3000 ± 200 nM (parasite growth; 3D7; 72 h, 5% serum plus Albumax II).
For `C=CC1CN2CCC1CC2C(OC(=O)NCCCCCCNC(=O)OC(c1ccnc2ccc(OC)cc12)C1CC2CCN1CC2C=C)c1ccnc2ccc(OC)cc12` (stereo not shown), the IC50 was 75 ± 11 nM (parasite growth; C4 Dd2 pfcrt transfectant).
`O=C(O)[C@@H]1Cc2c([nH]c3ccccc23)[C@@H](c2ccc(Br)cc2Br)N1` has an IC50 of 590 ± 20 nM (parasite growth; Dd2; 72 h).
For `C1=CC(c2ccc[nH]2)=NC1=CNC12CC3CC(CC(C3)C1)C2`, the IC50 was 295 nM (parasite growth; Dd2, chloroquine-resistant).
For `CC[C@H](C)[C@@H]1NC(=O)[C@H](CCCCN)NC(=O)[C@H](CCCCN)NC(=O)[C@H](Cc2ccc(O)cc2)NC(=O)[C@H](CC(C)C)NC(=O)[C@@H]2CCCN2C(=O)[C@H](C)NC(=O)CNC(=O)CNC(=O)[C@H](CO)NC(=O)CNC(=O)CNC(=O)[C@H](CO)NC(=O)[C@H](CCC(=O)O)NC(=O)[C@H](CC(C)C)NC(=O)[C@H](CC(C)C)NC(=O)[C@H](CCCCN)NC(=O)[C@H](CCCCN)NC(=O)[C@H]([C@@H](C)CC)NC(=O)[C@H]([C@@H](C)CC)NC(=O)[C@H](CCCCN)NC(=O)[C@H](CCCCN)NC(=O)[C@H](Cc2ccc(O)cc2)NC(=O)[C@H](CC(C)C)NC(=O)[C@@H]2CCCN2C(=O)[C@H](C)NC(=O)CNC(=O)[C@@H]2CSSC[C@H](NC(=O)[C@H](CC(C)C)NC(=O)[C@H](CCCCN)NC(=O)[C@H](CCCCN)NC(=O)[C@H]([C@@H](C)CC)NC1=O)C(=O)N[C@@H](CCC(=O)O)C(=O)N[C@@H](CO)C(=O)NCC(=O)N2`, the IC50 was 37600 ± 3400 nM (parasite growth; 3D7; 72 h, 5% serum plus Albumax II).
For `C[C@H]1C(=O)O[C@@H]2O[C@@]3(C)CC[C@@H]4[C@@]2(OO3)[C@H]1CC[C@]4(C)O`, the IC50 was 64.1 nM (parasite growth, SYBR Green I; 3D7, chloroquine-sensitive).
The IC50 of `CCCCNCC(O)Cn1c2ccccc2c2ccccc21` (stereo not shown) is reported as 334 ± 67 nM (SYBR Green I; Dd2 chloroquine-resistant; 72 h).
`Clc1ccc(C2=CC(c3ccc[nH]3)=NC2=CNC2CCCCCC2)cc1` gave an IC50 of 1250 nM (parasite growth; Dd2, chloroquine-resistant).
`CC[C@H](C)[C@@H]1NC(=O)[C@H](CCCCN)NC(=O)[C@H](CCCCN)NC(=O)[C@H](Cc2ccc(O)cc2)NC(=O)[C@H](CC(C)C)NC(=O)[C@@H]2CCCN2C(=O)CNC(=O)CNC(=O)[C@@H](NC(=O)CN)CSSC[C@@H](C(=O)N[C@@H](CCC(=O)O)C(=O)N[C@@H](CO)C(N)=O)NC(=O)[C@H](CC(C)C)NC(=O)[C@H](CCCCN)NC(=O)[C@H](CCCCN)NC(=O)[C@H]([C@@H](C)CC)NC(=O)[C@H]([C@@H](C)CC)NC(=O)[C@H](CCCCN)NC(=O)[C@H](CCCCN)NC(=O)[C@H](Cc2ccc(O)cc2)NC(=O)[C@H](CC(C)C)NC(=O)[C@@H]2CCCN2C(=O)[C@H](C)NC(=O)CNC(=O)CNC(=O)[C@H](CO)NC(=O)CNC(=O)CNC(=O)[C@H](CO)NC(=O)[C@H](CCCCN)NC(=O)[C@H](CC(C)C)NC(=O)[C@H](CC(C)C)NC(=O)[C@H](CCCCN)NC(=O)[C@H](CCCCN)NC(=O)[C@H]([C@@H](C)CC)NC1=O` has an IC50 of 5000 ± 100 nM (parasite growth; 3D7; 72 h, Albumax II medium, no serum).
`O=C1C(O)=C(CNC2CCCC2)C(=O)c2ccccc21` has an IC50 of 16800 nM (parasite growth; W2; drug-resistant strain, blood stage).
`Nc1ncnc2c1c(-c1ccc(Oc3ccccc3)cc1)cn2C1CCCC1` has an IC50 of 30000 nM (merozoite invasion of erythrocytes; FVO).
`CC[C@H](C)[C@@H]1NC(=O)[C@H](CCCCN)NC(=O)[C@H](CCCCN)NC(=O)[C@H](Cc2ccc(O)cc2)NC(=O)[C@H](CC(C)C)NC(=O)[C@@H]2CCCN2C(=O)[C@H](C)NC(=O)CNC(=O)CNC(=O)[C@H](CO)NC(=O)CNC(=O)CNC(=O)[C@H](CO)NC(=O)[C@H](CCC(=O)O)NC(=O)[C@H](CC(C)C)NC(=O)[C@H](CC(C)C)NC(=O)[C@H](CCCCN)NC(=O)[C@H](CCCCN)NC(=O)[C@H]([C@@H](C)CC)NC(=O)[C@H]([C@@H](C)CC)NC(=O)[C@H](CCCCN)NC(=O)[C@H](CCCCN)NC(=O)[C@H](Cc2ccc(O)cc2)NC(=O)[C@H](CC(C)C)NC(=O)[C@@H]2CCCN2C(=O)[C@H](C)NC(=O)CNC(=O)[C@@H]2CSSC[C@H](NC(=O)[C@H](CC(C)C)NC(=O)[C@H](CCCCN)NC(=O)[C@H](CCCCN)NC(=O)[C@H]([C@@H](C)CC)NC1=O)C(=O)N[C@@H](CCC(N)=O)C(=O)N[C@@H](CC(N)=O)C(=O)NCC(=O)N2` has an IC50 of 19100 ± 1900 nM (parasite growth; 3D7; 72 h, Albumax II medium, no serum).
`[N-]=[N+]=NCCc1cc(CN(Cc2ccccn2)Cc2ccccn2)c(O)c(CN(Cc2ccccn2)Cc2ccccn2)c1` has an IC50 of 540 ± 91 nM (growth, [3H]hypoxanthine incorporation; HB3 chloroquine-sensitive; 48 h).
The IC50 of `CCC1=C(C)C(c2ccc[nH]2)=NC1=CNC12CC3CC(CC(C3)C1)C2` is reported as 14 nM (parasite growth; 7G8, chloroquine-resistant).
The IC50 of `CC(C)C(C(=O)N[C@@H](Cc1ccccc1)[C@H](O)CN1CCN(Cc2ccc(Br)cc2)CC1)N1C(=O)c2ccccc2C1=O` (stereo partly shown) is reported as 1100 ± 17.6 nM (blood-stage growth, SYBR Green I fluorescence; IPC4912 (MRA-1241) artemisinin-resistant; 72 h).
The IC50 of `CCC1=CC(c2ccc[nH]2)=NC1=CNC1CCCCCC1` is reported as over 250 nM (parasite growth; 7G8, chloroquine-resistant).
For `CC[C@H](C)[C@@H]1NC(=O)[C@H](CCCCN)NC(=O)[C@H](CCCCN)NC(=O)[C@H](Cc2ccc(O)cc2)NC(=O)[C@H](CC(C)C)NC(=O)[C@@H]2CCCN2C(=O)[C@H](C)NC(=O)CNC(=O)CNC(=O)[C@H](CO)NC(=O)CNC(=O)CNC(=O)[C@H](CO)NC(=O)[C@H](CCC(=O)O)NC(=O)[C@H](CC(C)C)NC(=O)[C@H](CC(C)C)NC(=O)[C@H](CCCCN)NC(=O)[C@H](CCCCN)NC(=O)[C@H]([C@@H](C)CC)NC(=O)[C@H]([C@@H](C)CC)NC(=O)[C@H](CCCCN)NC(=O)[C@H](CCCCN)NC(=O)[C@H](Cc2ccc(O)cc2)NC(=O)[C@H](CC(C)C)NC(=O)[C@@H]2CCCN2C(=O)CNC(=O)CNC(=O)[C@@H](NC(=O)CN)CSSC[C@@H](C(N)=O)NC(=O)[C@H](CC(C)C)NC(=O)[C@H](CCCCN)NC(=O)[C@H](CCCCN)NC(=O)[C@H]([C@@H](C)CC)NC1=O`, the IC50 was 12300 ± 1000 nM (parasite growth; 3D7; 72 h, 5% serum plus Albumax II).
`CCCCCCN=Cc1[nH]c(-c2ccc[nH]2)cc1OC` gave an IC50 of 25 nM (parasite growth; 7G8, chloroquine-resistant).
With `CC1=N[C@H](C)Cc2c(-c3ccc4ccccc4c3)ccc(O)c21` the IC50 was 866 nM (parasite growth, SYBR Green; W2; 96 h, drug-resistant strain, blood stage).
`CCC1=C(C)C(=CNC23CC4CC(CC(C4)C2)C3)N=C1c1ccc[nH]1` has an IC50 of 4.3 nM (parasite growth; Dd2, chloroquine-resistant).
With `C#CCOc1ccc(C=NNC(=N)NN=Cc2ccc(OCC#C)cc2)cc1` the IC50 was 376 nM (parasite growth, SYBR Green; Tm90-C2B, multidrug and atovaquone resistant; 72 h).
`COc1cc2c3cc1Oc1cc(ccc1O)CC1c4c(cc(OC)c(O)c4Oc4ccc(cc4)CC3N(C)CC2)CCN1C` (stereo not shown) gave an IC50 of under 1000 nM (parasite growth, SYBR Green; blood stage).
